Published values of several laboratories.
Numbered parts are unrelated; each lists some results of a single study. Substitutions count along the parent as printed.

Series 1 — technique: protein-binding microarray; form: double-stranded DNA, one strand shown; sample: in vitro; concentration: 250 nM; notes: 60-bp whole probe; added: salmon DNA 0.4 mg/ml; relative to: random background probes; direction: higher = stronger binding; measurement: log fluorescence; all sequences stand within: GCCTAGCAC … GTCTTGATTCGCTTGACGCTGCTG
Target: Interferon regulatory factor 5, full length, phosphomimetic (IRF5, Homo sapiens, UniProt Q13568-2, residues 1-514, K96S/S451D/S453D/S456D/S462D)
GGCCAAACAGTATTAAACTCGTGCTAG: -0.223 z-score
GACGGACTGCTTTTCCCGACGTGCTAG: -0.19 z-score
GACGGTTCCGACACTGGGGACGTGCTA: -0.203 z-score
GACTGTTTCGACACTGGGGACGTGCTA: 4.91 z-score
TCACTTCTGGTGCTCATACTGTGCTAG: 0.418 z-score
GACGATATCGGGTTTCGAGATGTGCTA: 4.08 z-score
TTAGGCATCGACACTGGGTTAGTGCTA: -0.0338 z-score
TACTCTCTCCATGTGTTTAAGTGCTAG: 0.502 z-score
GACGGTAGCCTTTTCCTGACGTGCTAG: -0.215 z-score
CCAGTTTTCTTTTCATTACTGTGCTAG: 2.26 z-score
TTAGGTATCGACACCGGGTTAGTGCTA: 2.46 z-score
TTAGGTCTCGGTCTCGGTAAGTGCTAG: 0.821 z-score
GCTTTTATGGTATTTTTTTCGTGCTAG: 1.2 z-score
TTAGATCTCAGTATCGAGTAGTGCTAG: 2.48 z-score
TTAGGTCTAGGTATCGGTTAGTGCTAG: 4.1 z-score
TTAGAACTGAAACTGGATTAGTGCTAG: 1.79 z-score
GACGGACTGGACACGGGGGACGTGCTA: -0.468 z-score
TCAATTTTTGCTTACGAACTGTGCTAG: 1.2 z-score
GACGGTTTCGACTAGCGGGACGTGCTA: 6.58 z-score
ACTCCTATCCAAGTTCCCCTGGTGCTA: -0.00506 z-score
AGACATGACACCACTCCTGAGTGCTAG: -0.378 z-score
CCCTATTTAAGGCTAGGCACGTGCTAG: -0.178 z-score
AAGCAGTTACTCTAGAGGCCGTGCTAG: -0.426 z-score

Series 2 — technique: RNA Bind-n-Seq; form: RNA; sample: in vitro; concentration: 365 nM; relative to: no-protein control; direction: higher = stronger binding; measurement: RBNS enrichment (R)
Target: RNA binding protein fox-1 homolog 2, RRM domain, GST-SBP tag (RBFOX2, Homo sapiens, UniProt O43251-10, residues 100-194)
Notes: natural RNA segment, single round, ends assumed
Target sequence (chain): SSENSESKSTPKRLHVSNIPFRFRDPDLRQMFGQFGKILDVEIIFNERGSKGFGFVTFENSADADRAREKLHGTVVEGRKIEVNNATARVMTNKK
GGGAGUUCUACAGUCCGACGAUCGGUCAGGUUUCUGAGUACUGGCAUUGGAUUUUAAGCGGCAUGUGACCCUUUGUGUUUUAGUGACUCAGAAAAGUCAAGCCAUUUGCAAAAGUUAGCAGUUUGUUUUGUCAUGGAAUUCUCGGGUGCCAA: 1.85
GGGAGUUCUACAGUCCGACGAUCAGGCCCUUUGGCGUGGUACCAACCAGAUAAUGACUGCAUCAGGAUGAAAGCUGCUGAACUCGGCAUGGCGCCUCCUCUUCUCUGUUGGGAUGAGUGACUUUAUUGAUUUGUGGAAUUCUCGGGUGCCAA: 1.52
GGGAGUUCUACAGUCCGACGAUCCCCUGCCUCGUUUCCAUCAAGCAUUCCAGUAGCCCCCACAGAGGCCCUCAGCUCAGUUUUUGGCUCUGUUAUGGAGCCUUAGUACCCACCCCGUCUGUGUCCCCCAUGAAUGGAAUUCUCGGGUGCCAA: 1.05
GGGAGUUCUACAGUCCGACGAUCGUCGUUAGGACCAAAUGUAGACUGGCUCAGGACCUGUAAGGAAAUCACAGGUUCAGAGAUCUCUUAGGGAAGUUGCUCAAAAUCCUGUUUGUAGUUAAGGUGUCUGGGGUUGGAAUUCUCGGGUGCCAA: 1.04
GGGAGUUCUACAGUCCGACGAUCUACUUUUUAAAAUCGUUCAUAGACUUCUGUAAAAUGCAAGAUAAAUUAAAGUUAUUAUAACAGUAAUUCUUUGAAGUCGAUCUGUCCUUCAGUUUUCUUUUCUACAAUAAUGGAAUUCUCGGGUGCCAA: 0.937
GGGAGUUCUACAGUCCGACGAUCCAUGAUGGCAAUAUACAAGUGGUAUUGUUAGGUGGUUUAACUUAGAAUAAAAUGAGAAUUCUUCAGUUAUAUUUUGUACUAUGGUUUAGGGCUAUGACUAAUAUUUCAGGUGGAAUUCUCGGGUGCCAA: 0.344
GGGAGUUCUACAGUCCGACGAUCGUGCGUGCGGGCGUCAGUUUCCAGGAUAGCCGUGCUGCAGUCCAGUUAGGCUGUUCUCCUGAGCUGCAGGUGCCCAGGUCUGACUCUCCUUCUCUGCUUAUCCCCAGGCAUGGAAUUCUCGGGUGCCAA: 0.605
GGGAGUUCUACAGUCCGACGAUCAUUGGGCUGCAGGCAGCUCUGGGACGGCACAGGGCGGGCGCUCUGAUCAGCUCGUGUAAAACACACCGUCUUCUUGGCCUCCUGGCCAGUCUUUCUGCGAAUAGUCCUCUUGGAAUUCUCGGGUGCCAA: 0.192
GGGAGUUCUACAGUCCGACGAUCUGCAUAAAUCGAUUAGUCUGCUGUUGCUUAAGGCAGCAGCCCCAGGCAGCAUUUAAGCGGGAUCCUUAGCAAGACAGAAUCCAGCAAAACCCUUUCCCCUCUCAAGCCAGUGGAAUUCUCGGGUGCCAA: 0.514
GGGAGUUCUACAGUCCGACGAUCAGGCUUAGUUGAGUGAGCUGACCAAUAUCACCCAGCCAGUAUGUGAUAAAACUGAUUCUGACCCACACAGUUUGAUUCUAGAGCCUGUUCUGACUACUGUGCUAAGGUGUUGGAAUUCUCGGGUGCCAA: 0.724
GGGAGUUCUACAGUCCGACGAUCCUGGACUGUCAGCUGUCCAACUGUCCCUGUUGUAAGUGCUAUUAACUAUCUCAGUUACCAGAAUCUUGCUGCUCAAGUUUCGAGUGAUCGACAAUGGAUUUUUAACCAAGUGGAAUUCUCGGGUGCCAA: 0.299
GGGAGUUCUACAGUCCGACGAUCGGUCUUGGCUGCAUUCUUUUUUUUCCCUCGUGGGGUUCAAAAGAAUAAACAUUUUCUUACUGAUAAACUAGUUUCCUGCCUUUUUAACAUCCCUGGUGGACACAGCGAGGUGGAAUUCUCGGGUGCCAA: 0.389

Series 3 — technique: protein binding microarray; form: double-stranded DNA, one strand shown; sample: in vitro; concentration: not given; relative to: not given; direction: higher = stronger binding; measurement: E-score
Target: Histone acetyltransferase KAT6A, both winged helices, GST fusion (KAT6A, Homo sapiens, UniProt Q92794, residues 1-181)
Notes: 8-mer, flanks averaged, mean of 2 arrays, mostly near background
Target sequence (chain): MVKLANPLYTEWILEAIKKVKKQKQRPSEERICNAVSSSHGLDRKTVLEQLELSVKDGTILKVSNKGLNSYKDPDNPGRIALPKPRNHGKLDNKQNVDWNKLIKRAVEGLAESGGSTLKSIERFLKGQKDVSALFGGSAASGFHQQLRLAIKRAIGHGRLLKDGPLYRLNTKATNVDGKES
ATGTTAAA: -0.0754
AATCGCTA: 0.0825
TAGTGGCA: -0.152
GCCGAAGC: 0.195
AATGCCAG: -0.0755
CATAATAC: -0.114
AGACTTAA: -0.0655
AACATTAA: -0.00304
GCCTAATA: -0.0018
ATGAAGTA: 0.00532
GCCCATTA: -0.0655
CATACTCG: 0.112
TGTGAACA: -0.0366
TAGCAAAA: 0.0269
AATGCAGG: -0.122
GGGATAAA: -0.0338
AGAGGCTG: -0.305
CTACATTC: -0.0689
AGGCTCCG: 0.0525
GTACATAC: -0.0596
CTTACCAC: -0.189
AAACCTCG: 0.0665
ATAATGGG: -0.101
GACTAAGA: -0.0511

Series 4 — target: CCNA1, cyclin fold, Cln2 fusion (human); technique: yeast growth competition, sequencing; sample: yeast; notes: weak parent motif; relative to: not given; direction: higher = stronger binding; measurement: normalised enrichment score
Starting sequence: PKN2 docking peptide (human); VSAVQKLDFSDTM
VSGVQKLDFSDTM [A3G]: 0.105
VSAVQKLDFSSTM [D11S]: 0.236
VWAVQKLDFSDTM [S2W]: 0.2
VSAVQKLDFSDTK [M13K]: 0.211
VSAAQKLDFSDTM [V4A]: 0.261
VSAQQKLDFSDTM [V4Q]: 0.18
VSAVAKADFSDTM [Q5A L7A]: 0.422
VSEVQKLDFSDTM [A3E]: -0.0565
VSAVQKLYFSDTM [D8Y]: 0.16
VCAVQKLDFSDTM [S2C]: -0.00327
VSAVQILDFSDTM [K6I]: 0.0719
VSSVQKLDFSDTM [A3S]: 0.221
VSQVQKLDFSDTM [A3Q]: 0.0602
VSCVQKLDFSDTM [A3C]: 0.0851
VSAVQKLAFSDTM [D8A]: 0.3
VSLVQKLDFSDTM [A3L]: 0.0515
VSAVQKLDFSDTW [M13W]: 0.187
VSAVQKLDFCDTM [S10C]: 0.351
ISAVQKLDFSDTM [V1I]: 0.145
VSAVQKLDFDDTM [S10D]: 0.245
VSAVQNLDFSDTM [K6N]: 0.366
VSAHQKLDFSDTM [V4H]: 0.0894
VSAVQKLFFSDTM [D8F]: 0.106
DSAVQKLDFSDTM [V1D]: -0.208
VSAVQKLDFSDVM [T12V]: 0.156

Some of these lines once more (series 3):
ATAATGGG: -0.101
AGACTTAA: -0.0655
GCCGAAGC: 0.195
AAACCTCG: 0.0665
GTACATAC: -0.0596
CTTACCAC: -0.189
CATAATAC: -0.114
